# Published values of several laboratories.
# Each line is one published result; not all experiments were run side by side.
# Sample: plasma
# Route: oral
SMILES,test system,conditions,AUC
O=C(O)COC[C@H]1CC[C@H](COC(=O)N(c2ccccc2)c2ccc(Cl)cc2)CC1,human,"30 µg, multiple doses, twice daily, steady state",17.7 ng·h/mL
CNCc1ccc(-c2[nH]c3cc(F)cc4c3c2CCNC4=O)cc1,human,"300 mg, single dose, fasted",5320 ng·h/mL
CCn1c(C(=O)c2cc(C)cc(C#N)c2)c(C(C)C)c(=O)[nH]c1=O,human,"300 mg, multiple doses, once daily, steady state, healthy volunteers",6810 ng·h/mL
COc1cc(C(=O)NC2CCN(C)CC2)c(F)cc1Nc1ncc(C(F)(F)F)c(Oc2cccc3c2C(=O)N(C)C3)n1,human,"200 mg once daily, multiple doses, steady state, patients",36.8 µM·h
Nc1ccc(-c2nc([C@H]3CCc4cc(-c5cc(Cl)ccc5-n5cnnn5)cc(=O)n43)c(F)[nH]2)c(F)n1,human,"80 mg, single dose, fed",8630 ng·h/mL
CN1C(=O)[C@@H](NC(=O)c2nnc(Cc3ccccc3)[nH]2)COc2ccccc21,male human,"120 mg twice daily, multiple doses",7220 ng·h/mL
C[C@@H](N)c1cc(Cl)ccc1Cn1c(=S)[nH]c(=O)c2[nH]ccc21,human,"10 mg, multiple doses, once daily, healthy volunteers",1.08 µM·h
CCN1C(=O)CNc2ncc(-c3ccc(-c4nc[nH]n4)nc3C)nc21,human,"25 mg, patients",1720 ng·h/mL
C[C@H](N)C(=O)N1C[C@H](CCCB(O)O)[C@](N)(C(=O)O)C1,human,"50 mg twice daily, multiple doses, steady state, patients",8480 ng·h/mL

# Repeated from above:
SMILES,test system,conditions,AUC
COc1cc(C(=O)NC2CCN(C)CC2)c(F)cc1Nc1ncc(C(F)(F)F)c(Oc2cccc3c2C(=O)N(C)C3)n1,human,"200 mg once daily, multiple doses, steady state, patients",36.8 µM·h
